Experimental data from different studies.
Numbered parts are unrelated; each lists some results of a single study. Substitutions count along the parent as printed.

Set 1
Target: Histone acetyltransferase KAT6A, both winged helices, GST fusion (KAT6A, Homo sapiens, UniProt Q92794, residues 1-181)
Technique: protein binding microarray
Molecule type: double-stranded DNA, one strand shown
Matrix: in vitro
Tested at: not given
Notes: 8-mer, flanks averaged, mean of 2 arrays, mostly near background
Baseline: not given
Direction: higher = stronger binding
Residues (chain): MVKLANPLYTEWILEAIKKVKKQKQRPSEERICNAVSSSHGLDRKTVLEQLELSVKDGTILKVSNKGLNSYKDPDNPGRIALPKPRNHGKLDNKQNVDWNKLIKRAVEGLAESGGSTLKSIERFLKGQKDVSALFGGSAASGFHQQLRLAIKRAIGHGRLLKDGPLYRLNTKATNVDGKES
Strand | E-score
AGCGGCAT | 0.295
ACCGATGA | 0.0603
ACCAACAC | -0.0698
AGGCATCC | -0.288
TCCCACGA | -0.166
AAATTACT | -0.13
CGGCTTTC | 0.267
TCCTCTAA | -0.139
ATCATGGC | -0.0329
GGCGATAA | -0.036
CTCCGTAC | 0.206
CCTGATCC | -0.189
CTAACCTC | -0.183
GTGTGCAA | -0.183
TATACACA | -0.0309
CTAATGAC | -0.175
ATAGCAAG | -0.12
CGTGTTTC | 0.0505
AATGGGGA | -0.207
AGGACGCA | 0.0533
ATGATCGC | 0.223
GGGGAACC | -0.105
ATCCTCAT | -0.168
TAGAGGAA | -0.138
AACCGATC | 0.0898

Set 2
Target: CCNB3, cyclin fold, Cln2 fusion (human)
Technique: yeast growth competition, sequencing
Matrix: yeast
Notes: weak parent motif
Baseline: not given
Direction: higher = stronger binding
Parent: CDKN1B docking peptide (human); PSACRNLFGPVDH; partner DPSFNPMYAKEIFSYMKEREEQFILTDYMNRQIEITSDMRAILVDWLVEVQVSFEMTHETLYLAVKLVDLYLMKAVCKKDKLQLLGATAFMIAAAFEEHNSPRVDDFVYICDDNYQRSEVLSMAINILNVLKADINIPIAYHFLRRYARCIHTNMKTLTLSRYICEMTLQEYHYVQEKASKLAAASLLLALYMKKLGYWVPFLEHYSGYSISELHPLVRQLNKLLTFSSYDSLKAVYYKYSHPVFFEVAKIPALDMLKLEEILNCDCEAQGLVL
Variant | normalised enrichment score
PSACRNLFGPVFH [D12F] | 0.368
PSACRNLFEPVDH [G9E] | 0.32
PSACRNLVGPVDH [F8V] | -0.403
PSACRNLFGPCDH [V11C] | 0.428
PSACRNLFGPVVH [D12V] | 0.294
PSACRNRFGPVDH [L7R] | 0.08
PMACRNLFGPVDH [S2M] | 0.154
PSACRNWFGPVDH [L7W] | -0.154
PSACRNLFGRVDH [P10R] | 0.265
HSACRNLFGPVDH [P1H] | 0.391
PSACRNLFGPVRH [D12R] | 0.251
PSACRNNFGPVDH [L7N] | -0.186
PSACRNLFGPVIH [D12I] | 0.14
PNACRNLFGPVDH [S2N] | 0.303
PSACRNLFGPVHH [D12H] | 0.23
PSACRNTFGPVDH [L7T] | -0.0893
PFACRNLFGPVDH [S2F] | 0.23
PSACRNLFQPVDH [G9Q] | 0.441
PSACRNGFGPVDH [L7G] | 0.331
PSAHRNLFGPVDH [C4H] | 0.295
PSACRNLFGPVDC [H13C] | 0.358
PSACRNLFPPVDH [G9P] | 0.0163
PSACRNLFRPVDH [G9R] | -0.442
PSACRNLGGPVDH [F8G] | -0.204
PSACRNLFKPVDH [G9K] | 0.826

Set 3
Target: Ras GTPase-activating protein-binding protein 1, RRM domain (G3BP1, Homo sapiens, UniProt Q13283)
Sequence of UniProt Q13283 (whole entry, looked up): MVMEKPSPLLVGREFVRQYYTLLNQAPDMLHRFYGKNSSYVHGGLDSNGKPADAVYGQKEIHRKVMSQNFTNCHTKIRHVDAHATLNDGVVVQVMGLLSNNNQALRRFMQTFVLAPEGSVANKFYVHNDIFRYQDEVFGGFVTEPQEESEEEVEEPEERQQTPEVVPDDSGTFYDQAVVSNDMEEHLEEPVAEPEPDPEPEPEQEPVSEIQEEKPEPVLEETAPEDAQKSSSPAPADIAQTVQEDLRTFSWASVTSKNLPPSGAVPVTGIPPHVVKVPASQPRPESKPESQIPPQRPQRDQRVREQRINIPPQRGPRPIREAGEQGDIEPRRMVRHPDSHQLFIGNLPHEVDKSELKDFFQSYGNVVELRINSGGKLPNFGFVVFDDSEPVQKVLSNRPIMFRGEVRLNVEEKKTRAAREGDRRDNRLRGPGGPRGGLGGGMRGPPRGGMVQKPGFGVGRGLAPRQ
Technique: RNA Bind-n-Seq
Molecule type: RNA
Matrix: in vitro
Tested at: 1 µM
Notes: whole 134-nt RNA, ends assumed
Added: 150 mM KCl
Baseline: input library
Direction: higher = stronger binding
All sequences stand within: GGGAGUUCUACAGUCCGACGAUC … UGGAAUUCUCGGGUGUCAAGG
Strand | log2 enrichment
CCUGUGCUACACAUCGUAUGUACCGAAUCGGCCCCCCCGGGCCCCCCCGGCCCCCCCGGGGAAAGUAUUAUGUUACGCCGUUCGGAUCUG | -0.519
ACCAUGCAGGUGGGCAUCUUUGGGAAGUGGGGCAAGGGGGGGAUAGGGAGGGGGGUAACACUUUGAGAACAGGUGGUCCCAGGUCGUUUC | 0.96
UUCCUCAAGUCCUGUGCUACACAUCGUAUGUACCGAAUCGGUGGUGGUGGAAAGUAUUAUGUUACGCCGUUCGGAUCUGCACUUCCAGCA | -0.201
UGUGUUGUGCUCAUUACCAGUGCAGCGACUGCCGUCCCAGGGUGACUCUGAGUUGUCCUUUAUCGUGAGCUAGCAAUGGCUAGCGAAGAC | -0.277
AGUGGGUUUGUUGAAGCAGUUGCUGGUGCAACAGCUAGGUUUGACUGAGAAGAGCGUUCAGGAAGACUGGCAACAUUUCCCAAGAUACAG | -0.257
AGUCCUGUGCUACACAUCGUAUGUACCGAAUCGGGGUUUUUGGGGAAAGGGGUGGGGAAAGUAUUAUGUUACGCCGUUCGGAUCUGCACU | 1.03
GUCCUGUGCUACACAUCGUAUGUACCGAAUCGGGUUUUUUUGGGUGGGAAAAAAAGGGAAAGUAUUAUGUUACGCCGUUCGGAUCUGCAC | 0.00853
CACAGACAACACUCACCCACACAGACACAGAGGGAAGGGGUUGGGAUGGGGACAGGGUGCACAGCAGGGCGGGGUAGGACCCCAGCCCCU | 0.181
GUGCUACACAUCGUAUGUACCGAAUCGGGGUUUUUUUGGGGUUUUUUUGGGGUUUUUUUGGGGAAAGUAUUAUGUUACGCCGUUCGGAUC | 0.98
AAGUCCUGUGCUACACAUCGUAUGUACCGAAUCGGAAAAAAAGGUUUUUGGUUUGGAAAGUAUUAUGUUACGCCGUUCGGAUCUGCACUU | -0.349
CAAGUCCUGUGCUACACAUCGUAUGUACCGAAUCGGAAAAAGGUUUGGAAAAAGGAAAGUAUUAUGUUACGCCGUUCGGAUCUGCACUUC | -0.259
CUGUGCUACACAUCGUAUGUACCGAAUCGGGGAAAAAGGGGUUUUUUUGGGGUUUUUGGGGAAAGUAUUAUGUUACGCCGUUCGGAUCUG | 1.06
UCCUGUGCUACACAUCGUAUGUACCGAAUCGGGGAAAAAGGGGAAAAAGGGAAAAAGGGGAAAGUAUUAUGUUACGCCGUUCGGAUCUGC | 0.161
UAACUUUAGAGGAGGAUCUGAUGCAUAUGGCAGUGGACGUGGAUUUGGGGAUGGCUAUAAUGGGUAUGGAGGAGGACCUGGAGGUGGCAA | -0.889

Set 4
Target: RNA binding protein fox-1 homolog 2, RRM domain, GST-SBP tag (RBFOX2, Homo sapiens, UniProt O43251-10, residues 100-194)
Technique: RNA Bind-n-Seq
Molecule type: RNA
Matrix: in vitro
Tested at: 365 nM
Notes: natural RNA segment, single round, ends assumed
Baseline: no-protein control
Direction: higher = stronger binding
All sequences stand within: GGGAGUUCUACAGUCCGACGAUC … UGGAAUUCUCGGGUGCCAA
Residues (chain): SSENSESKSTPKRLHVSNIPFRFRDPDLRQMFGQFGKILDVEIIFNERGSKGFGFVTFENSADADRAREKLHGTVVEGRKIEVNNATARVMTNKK
Strand | RBNS enrichment (R)
GGCUCAUUUUGUUGAGCGUCUGCUUUUAUCUUGACACUGAGCACGAGAGGGCACGGGUGGGUGCUCACAGUGGGACCUUCUUGGAGGAAUCUCAGAGGGGGACAGAGAUG | 3.57
UCUCGUGAAAUUCUCACUGAAAGCCACAUUCUUAGCCUAAGGCAUUUCAUCUUUUAUGAUAUAAAAUGAUGGCUAUCAAAUGAUUUUCCAUACAUUGUACUGAUCAAGUU | 0.331
GCAGGAACUAGGCACAAGCUCUCUGAGCCAGUCCCUCAGCCACUGAAGUCCCCCUUUCUCCUUUUUUAUGAUGACAUUUUGGUUGUGCGUGCCUGUGUGUGUGUGUGUGU | 2.93
GGGCCAACACACGCCCCUGCCCCUCGUAGGCACCUGCCUGCCCCACACGGACUCCCGGGCCACGCCCCAGCCCGACAAUGUCGAGUAUAUUAUUAUUAAUAUUAUUAUGA | 2.49
GGAGACCAGUUGAGCACAGUCUGUGAGCAGUGCCCUUCCUCUCCCACUUGUCAAGAUUUCCCCUUUAGCGUGCUUGCUCCUCACCCCACCUGUACCUCCCUAUGUCCCCA | 1.33
AAUAGAAGUUCACUUAGCUACUUUAGAUAACCUUGCAUUACCACUGGUCUGGCCACGUUUGUUAAAUCCUUAUACUGAUAUUCUUCUAAAGAGUAAAUCUCAUCAUUUUU | 3.36
UUGUUGACACUUUAAUUUUGCUAUAAAUGUGUGGAAUCACAAGUUGCUGUGAUACUUCAUUUUUAAAUUGUGAACUUUGUACAAACUUUGUCAUGCUGAUGUGAACACAU | 0.414
UGGAUGGAACUCACCUGCCUGAACUGAGCAGGAAUGUCAGUCUUCCACUGCCCCUCCCUGCCAUCUUCUGCUACUUAGCUUGGGAGUUGAUGGUUGCAGAAGCCACACAG | 0.279
UGUAUGGAAAUAAAACUUGUUUGAAAAUUUGGAAUAGUGCUGCUGCCAGCUUAUUUUUCUGGUACUUGUAUUUUCACAUGUUAAAUGAUCUUUAUAUAUGUUGAAUUAAC | 0.873
AAGAAUAGGUCAUUUUCUAUUCACCAUCCUUUACUAUUAAGGGAAAGGAAAAGAACACUAGCUAAGGAAGGGAAAGGGAAGUGAUAUCAUAAAAGUAGCAACCUUCAUUU | 0.405
ACUGUUAGCCAAACAUUUUGCCUGUUUUCUGUCUCCAGAUGUGUGAUAAUUGGUGUGAGGUUGAAAUCCCUGGUUCCUGGAGGACAGACAACCUGACCUCCGACUGUCAG | 0.99
CAGGUGGUAGCUAGGGACCGUCCAUCAGUGGUCCUUCCCUCCACCGCCACGCCAGCUCCUGGGUCGUUUUCAUUUAUCUGGCAGAGCCCAGGACCCUUAGAAUCAUAUUU | 0.381

A few entries again (set 3):
Strand | log2 enrichment
AGUCCUGUGCUACACAUCGUAUGUACCGAAUCGGGGUUUUUGGGGAAAGGGGUGGGGAAAGUAUUAUGUUACGCCGUUCGGAUCUGCACU | 1.03
GUCCUGUGCUACACAUCGUAUGUACCGAAUCGGGUUUUUUUGGGUGGGAAAAAAAGGGAAAGUAUUAUGUUACGCCGUUCGGAUCUGCAC | 0.00853
CACAGACAACACUCACCCACACAGACACAGAGGGAAGGGGUUGGGAUGGGGACAGGGUGCACAGCAGGGCGGGGUAGGACCCCAGCCCCU | 0.181
GUGCUACACAUCGUAUGUACCGAAUCGGGGUUUUUUUGGGGUUUUUUUGGGGUUUUUUUGGGGAAAGUAUUAUGUUACGCCGUUCGGAUC | 0.98
AAGUCCUGUGCUACACAUCGUAUGUACCGAAUCGGAAAAAAAGGUUUUUGGUUUGGAAAGUAUUAUGUUACGCCGUUCGGAUCUGCACUU | -0.349
